# Results from different studies.
# By UniProt entry, the sequences of proteins in these tests, tags left out. Where a name states a change or a piece, a line headed by the entry shows the natural chain unless it says otherwise. Residues count along the entry.
# UniProt P27338, whole entry: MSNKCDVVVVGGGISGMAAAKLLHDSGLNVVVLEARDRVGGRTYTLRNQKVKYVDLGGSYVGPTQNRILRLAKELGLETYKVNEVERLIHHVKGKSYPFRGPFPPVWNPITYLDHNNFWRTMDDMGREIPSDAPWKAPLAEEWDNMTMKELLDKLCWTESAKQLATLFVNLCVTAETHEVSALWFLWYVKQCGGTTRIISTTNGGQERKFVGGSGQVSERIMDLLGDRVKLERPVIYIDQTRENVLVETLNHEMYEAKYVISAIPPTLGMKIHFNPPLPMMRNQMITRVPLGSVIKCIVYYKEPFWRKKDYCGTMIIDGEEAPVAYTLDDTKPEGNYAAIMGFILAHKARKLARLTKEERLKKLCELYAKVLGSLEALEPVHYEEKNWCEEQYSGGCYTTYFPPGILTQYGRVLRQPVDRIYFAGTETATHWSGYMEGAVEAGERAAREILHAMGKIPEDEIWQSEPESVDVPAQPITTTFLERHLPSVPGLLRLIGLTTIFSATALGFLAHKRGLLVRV
# UniProt P06276, whole entry, looked up: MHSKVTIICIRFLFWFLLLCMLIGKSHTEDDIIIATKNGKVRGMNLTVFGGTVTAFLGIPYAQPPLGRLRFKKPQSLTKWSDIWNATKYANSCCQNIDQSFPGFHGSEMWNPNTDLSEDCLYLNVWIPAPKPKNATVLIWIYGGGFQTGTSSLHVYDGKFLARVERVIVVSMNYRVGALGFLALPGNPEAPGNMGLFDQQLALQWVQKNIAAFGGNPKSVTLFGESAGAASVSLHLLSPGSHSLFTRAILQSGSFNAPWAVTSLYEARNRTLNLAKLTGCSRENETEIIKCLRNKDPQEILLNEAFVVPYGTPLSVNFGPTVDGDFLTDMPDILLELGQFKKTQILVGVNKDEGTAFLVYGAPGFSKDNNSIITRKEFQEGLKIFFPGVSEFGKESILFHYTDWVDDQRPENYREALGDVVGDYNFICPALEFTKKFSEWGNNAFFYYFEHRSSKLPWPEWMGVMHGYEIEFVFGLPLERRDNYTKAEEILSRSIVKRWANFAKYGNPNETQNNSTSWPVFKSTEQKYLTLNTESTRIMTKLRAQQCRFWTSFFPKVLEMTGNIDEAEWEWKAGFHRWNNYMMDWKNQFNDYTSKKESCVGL
# UniProt P11802, whole entry: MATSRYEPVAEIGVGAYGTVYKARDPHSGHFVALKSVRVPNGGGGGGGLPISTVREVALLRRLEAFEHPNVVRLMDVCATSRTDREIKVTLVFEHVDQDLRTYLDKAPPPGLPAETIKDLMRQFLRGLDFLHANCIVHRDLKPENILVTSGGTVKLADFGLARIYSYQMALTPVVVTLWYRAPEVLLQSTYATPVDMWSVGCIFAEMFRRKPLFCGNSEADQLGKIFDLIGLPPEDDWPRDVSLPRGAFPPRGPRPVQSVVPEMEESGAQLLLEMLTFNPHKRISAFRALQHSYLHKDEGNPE
# UniProt O43353, whole entry: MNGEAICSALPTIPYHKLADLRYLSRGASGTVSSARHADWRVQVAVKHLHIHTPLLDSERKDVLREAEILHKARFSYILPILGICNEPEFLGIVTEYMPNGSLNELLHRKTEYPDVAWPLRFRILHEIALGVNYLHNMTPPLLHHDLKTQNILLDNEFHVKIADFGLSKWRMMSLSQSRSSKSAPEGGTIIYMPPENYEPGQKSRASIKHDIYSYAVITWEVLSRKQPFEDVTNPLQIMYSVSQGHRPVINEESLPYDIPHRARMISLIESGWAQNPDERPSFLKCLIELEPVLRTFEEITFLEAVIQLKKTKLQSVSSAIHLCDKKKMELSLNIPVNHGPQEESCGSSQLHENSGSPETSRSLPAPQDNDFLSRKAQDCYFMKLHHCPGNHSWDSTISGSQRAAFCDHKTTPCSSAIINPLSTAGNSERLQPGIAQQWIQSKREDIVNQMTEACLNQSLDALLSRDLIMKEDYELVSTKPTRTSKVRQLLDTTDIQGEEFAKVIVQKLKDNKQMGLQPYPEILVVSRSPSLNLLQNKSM
# UniProt P0A800, whole entry, stated change not applied: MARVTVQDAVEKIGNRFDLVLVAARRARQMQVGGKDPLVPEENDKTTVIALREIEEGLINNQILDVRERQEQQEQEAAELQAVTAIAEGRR
# UniProt P0A8T7, whole entry, stated change not applied: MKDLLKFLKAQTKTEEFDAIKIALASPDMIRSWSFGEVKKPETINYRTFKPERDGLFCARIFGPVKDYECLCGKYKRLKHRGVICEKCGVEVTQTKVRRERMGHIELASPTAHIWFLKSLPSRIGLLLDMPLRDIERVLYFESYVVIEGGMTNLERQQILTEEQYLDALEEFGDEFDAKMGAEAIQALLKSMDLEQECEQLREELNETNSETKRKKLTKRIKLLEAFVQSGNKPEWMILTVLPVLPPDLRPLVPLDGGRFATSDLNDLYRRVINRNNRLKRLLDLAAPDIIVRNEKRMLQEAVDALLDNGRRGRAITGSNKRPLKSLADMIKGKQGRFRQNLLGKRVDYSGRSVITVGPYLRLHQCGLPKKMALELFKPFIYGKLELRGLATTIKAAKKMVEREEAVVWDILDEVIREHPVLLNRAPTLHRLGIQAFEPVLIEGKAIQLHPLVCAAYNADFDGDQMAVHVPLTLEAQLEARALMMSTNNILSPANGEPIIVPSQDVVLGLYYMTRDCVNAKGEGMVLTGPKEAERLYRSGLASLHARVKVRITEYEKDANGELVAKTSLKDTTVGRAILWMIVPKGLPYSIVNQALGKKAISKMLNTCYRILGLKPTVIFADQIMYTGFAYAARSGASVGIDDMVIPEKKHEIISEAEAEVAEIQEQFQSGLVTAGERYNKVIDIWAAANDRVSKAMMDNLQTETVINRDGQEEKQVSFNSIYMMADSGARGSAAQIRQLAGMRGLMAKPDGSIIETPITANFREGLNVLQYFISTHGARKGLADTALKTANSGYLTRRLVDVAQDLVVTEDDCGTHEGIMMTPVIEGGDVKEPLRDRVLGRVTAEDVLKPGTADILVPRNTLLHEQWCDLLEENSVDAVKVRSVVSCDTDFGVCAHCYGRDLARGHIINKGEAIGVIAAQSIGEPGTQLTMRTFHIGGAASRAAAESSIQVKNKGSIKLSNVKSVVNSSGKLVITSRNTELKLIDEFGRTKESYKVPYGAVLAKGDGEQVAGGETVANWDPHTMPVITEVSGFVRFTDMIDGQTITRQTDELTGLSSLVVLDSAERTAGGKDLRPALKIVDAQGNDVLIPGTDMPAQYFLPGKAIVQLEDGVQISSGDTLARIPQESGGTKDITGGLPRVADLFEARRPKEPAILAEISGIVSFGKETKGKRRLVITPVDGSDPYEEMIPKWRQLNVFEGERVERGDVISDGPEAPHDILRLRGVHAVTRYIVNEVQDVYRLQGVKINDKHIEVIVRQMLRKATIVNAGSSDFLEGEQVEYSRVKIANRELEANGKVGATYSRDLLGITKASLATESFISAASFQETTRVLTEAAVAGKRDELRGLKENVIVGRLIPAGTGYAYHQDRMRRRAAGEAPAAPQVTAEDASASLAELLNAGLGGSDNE
# UniProt P0A8V2, whole entry S531L: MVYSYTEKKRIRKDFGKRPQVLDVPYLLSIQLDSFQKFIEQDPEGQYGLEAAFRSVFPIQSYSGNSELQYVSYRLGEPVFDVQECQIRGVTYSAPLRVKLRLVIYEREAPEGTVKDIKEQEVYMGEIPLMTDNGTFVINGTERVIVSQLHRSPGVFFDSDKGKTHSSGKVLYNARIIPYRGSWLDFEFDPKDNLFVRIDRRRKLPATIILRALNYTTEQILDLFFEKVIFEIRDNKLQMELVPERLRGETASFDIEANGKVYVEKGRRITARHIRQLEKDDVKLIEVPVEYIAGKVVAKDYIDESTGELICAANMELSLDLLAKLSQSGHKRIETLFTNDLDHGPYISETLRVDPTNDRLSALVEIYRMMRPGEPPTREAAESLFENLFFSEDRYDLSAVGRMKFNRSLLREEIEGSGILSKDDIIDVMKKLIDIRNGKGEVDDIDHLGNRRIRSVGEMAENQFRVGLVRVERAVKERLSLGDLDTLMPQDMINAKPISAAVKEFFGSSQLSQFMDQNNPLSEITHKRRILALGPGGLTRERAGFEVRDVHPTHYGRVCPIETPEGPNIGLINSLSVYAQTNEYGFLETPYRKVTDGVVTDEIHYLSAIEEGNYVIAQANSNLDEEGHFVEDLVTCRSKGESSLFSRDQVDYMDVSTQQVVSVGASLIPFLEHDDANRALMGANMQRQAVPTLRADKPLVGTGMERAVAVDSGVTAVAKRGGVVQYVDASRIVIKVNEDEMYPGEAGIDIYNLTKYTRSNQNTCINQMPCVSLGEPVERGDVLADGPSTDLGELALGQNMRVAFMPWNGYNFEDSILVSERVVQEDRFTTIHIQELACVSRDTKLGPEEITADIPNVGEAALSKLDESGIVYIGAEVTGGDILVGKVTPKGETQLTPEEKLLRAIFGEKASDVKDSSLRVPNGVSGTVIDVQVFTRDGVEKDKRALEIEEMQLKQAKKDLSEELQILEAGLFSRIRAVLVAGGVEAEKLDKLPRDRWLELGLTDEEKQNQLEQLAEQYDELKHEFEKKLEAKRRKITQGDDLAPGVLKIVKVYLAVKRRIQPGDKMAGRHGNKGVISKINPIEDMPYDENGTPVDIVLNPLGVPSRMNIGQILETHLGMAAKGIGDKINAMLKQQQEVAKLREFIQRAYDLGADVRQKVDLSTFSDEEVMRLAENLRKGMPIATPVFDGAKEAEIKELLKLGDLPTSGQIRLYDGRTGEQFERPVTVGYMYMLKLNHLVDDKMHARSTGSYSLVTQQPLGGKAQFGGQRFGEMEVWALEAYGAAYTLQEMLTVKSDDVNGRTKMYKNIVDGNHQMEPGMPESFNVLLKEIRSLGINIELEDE
# UniProt Q4QE15, 1-355 D105E: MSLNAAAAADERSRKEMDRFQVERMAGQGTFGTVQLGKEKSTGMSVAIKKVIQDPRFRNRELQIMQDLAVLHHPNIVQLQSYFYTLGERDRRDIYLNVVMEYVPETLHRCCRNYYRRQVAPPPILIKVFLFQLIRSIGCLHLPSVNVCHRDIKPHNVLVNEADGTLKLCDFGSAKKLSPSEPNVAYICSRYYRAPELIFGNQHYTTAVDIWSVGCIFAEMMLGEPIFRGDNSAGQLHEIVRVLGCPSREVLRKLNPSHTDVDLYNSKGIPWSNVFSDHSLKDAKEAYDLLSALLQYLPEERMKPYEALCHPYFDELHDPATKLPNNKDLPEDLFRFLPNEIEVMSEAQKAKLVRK
# UniProt P31645, whole entry: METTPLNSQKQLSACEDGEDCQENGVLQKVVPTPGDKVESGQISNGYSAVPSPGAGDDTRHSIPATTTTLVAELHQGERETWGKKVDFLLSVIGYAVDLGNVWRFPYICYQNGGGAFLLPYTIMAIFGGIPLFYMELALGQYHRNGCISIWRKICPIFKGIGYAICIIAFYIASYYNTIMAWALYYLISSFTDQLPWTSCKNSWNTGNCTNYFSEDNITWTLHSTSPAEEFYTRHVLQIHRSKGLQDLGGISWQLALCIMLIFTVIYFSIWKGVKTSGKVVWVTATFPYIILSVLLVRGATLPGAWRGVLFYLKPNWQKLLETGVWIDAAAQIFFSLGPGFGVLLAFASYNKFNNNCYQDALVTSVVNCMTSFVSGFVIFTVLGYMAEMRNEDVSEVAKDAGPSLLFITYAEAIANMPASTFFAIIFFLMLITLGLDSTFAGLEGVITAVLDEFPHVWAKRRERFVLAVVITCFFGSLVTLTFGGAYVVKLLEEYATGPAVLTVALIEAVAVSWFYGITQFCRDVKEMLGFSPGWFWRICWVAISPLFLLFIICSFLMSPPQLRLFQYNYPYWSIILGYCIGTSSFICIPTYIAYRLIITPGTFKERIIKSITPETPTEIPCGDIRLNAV
# UniProt O43175, whole entry K58A/T60A: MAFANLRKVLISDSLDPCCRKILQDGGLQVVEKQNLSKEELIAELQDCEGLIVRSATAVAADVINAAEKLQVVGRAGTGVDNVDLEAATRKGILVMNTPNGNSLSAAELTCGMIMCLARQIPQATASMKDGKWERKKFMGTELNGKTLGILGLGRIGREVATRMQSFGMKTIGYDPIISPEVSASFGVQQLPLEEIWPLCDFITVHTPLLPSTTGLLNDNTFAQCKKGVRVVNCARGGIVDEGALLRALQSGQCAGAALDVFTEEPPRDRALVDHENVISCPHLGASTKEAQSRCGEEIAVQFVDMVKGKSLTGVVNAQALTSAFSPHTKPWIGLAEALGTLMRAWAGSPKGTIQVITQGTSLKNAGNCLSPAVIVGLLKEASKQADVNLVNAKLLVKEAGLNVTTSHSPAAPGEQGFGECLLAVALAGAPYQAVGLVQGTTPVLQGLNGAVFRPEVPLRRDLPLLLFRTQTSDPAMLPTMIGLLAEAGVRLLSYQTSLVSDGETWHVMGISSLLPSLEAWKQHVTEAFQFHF
# Compare with care: the assays were run in different laboratories. Numbers after ± are the reported error.
# MAOB: Amine oxidase [flavin-containing] B (MAOB, Homo sapiens, UniProt P27338)
# BCHE: Cholinesterase (BCHE, Homo sapiens, UniProt P06276)
SMILES,target or system,test,test system,conditions,scale,endpoint,result
Fc1cccc(-n2cnc3c(NCc4nc5cc(Cl)ccc5[nH]4)nc(N4CCNCC4)nc32)c1,"Cyclin-dependent kinase 4, with cyclin D1 (CDK4, Homo sapiens, UniProt P11802)","enzyme activity, inhibitor",,,,IC50,283 nM
CC#C/C(=N\OC[C@H]1COCCN1)c1ccc2ncnc(Nc3ccc(OCc4cccc(F)c4)c(Cl)c3)c2c1,"SRPK1 (Homo sapiens, UniProt Q96SB4)",kinase activity,,10 µM,,inhibition,9.3%
O=C(Cc1ccccc1Cl)N1CCN(c2ccc3nncn3n2)CC1,MAOB,"enzyme activity, inhibitor, fluorescence",,"recombinant human enzyme, added: kynuramine 20 µM",,IC50,5550 nM
CCOc1ccc2cc(-c3nn(CC4CCN(C)CC4)c4ncnc(N)c34)ccc2n1,"RIPK2 (Homo sapiens, UniProt O43353)","kinase activity, inhibitor",,kinase panel profiling,,IC50,775 nM
O=C(Nc1nc(-c2ccc3ccccc3c2)cs1)c1cccs1,MAOB,"enzyme activity, inhibitor, fluorescence",,"recombinant human enzyme, added: kynuramine 20 µM",,IC50,40100 nM
CCN(CC)C(=O)Oc1ccc(C(=O)Nc2cccc3cc[nH]c23)cc1,"GRIA1 (Homo sapiens, UniProt P42261)","modulator, two-electrode voltage clamp",Xenopus oocytes,"20 µM, added: 100 µM glutamate",relative to: agonist alone,current response,101 ± 2.8%
O=C(Nc1ccc(-c2nc3ccccc3s2)cc1)C1CCN(S(=O)(=O)c2ccccc2Cl)CC1,"Ephx2 (Rattus norvegicus, UniProt P80299)","enzyme activity, inhibitor, fluorescence",,"pH 7.4, 37 °C, added: CMNPC 5 µM",,IC50,3.9 nM
C[C@H](Cc1ccc(O)c(O)c1)[C@@H](C)Cc1ccc(O)c(O)c1,,,DMSO,"24 h, room temperature",,solubility,> 100 mg/mL
CC(C)Cc1nnc2c(C(=O)NC3c4ccccc4-c4ccccc43)cccn12,"rpoZ/rpoC/rpoB (Escherichia coli, UniProt P0A800+P0A8T7+P0A8V2, S531L)","enzyme activity, inhibitor",,rifampicin-resistant RNA polymerase,,IC50,4000 nM
CC[C@@H](C)[C@@H](NC(=O)C(O)Cc1ccc(O)c(Cl)c1)C(=O)N1C(C(=O)NCCCCN=C(N)N)CC2CCC(OS(=O)(=O)O)CC21 (stereo partly shown),"Prothrombin (F2, Bos taurus, UniProt P00735)","enzyme activity, inhibitor",,,,IC50,2.5 µg/mL
CO[C@]12CC[C@@]3(C[C@@H]1[C@H](O)c1ccccc1)[C@H]1Cc4ccc(O)c5c4[C@@]3(CCN1CC1CC1)[C@H]2O5,"OPRM1 (Homo sapiens, UniProt P35372)","G-protein activation, agonist",,,relative to: DAMGO,EC50,10.4 ± 2.7 nM
CCN(CC)c1ccc2c(O)c(C=Nc3ccc(CC(=O)NNc4c5c(nc6ccccc46)CCCC5)cc3)c(=O)oc2c1,BCHE,"enzyme activity, inhibitor",,Triton-containing buffer,,IC50,240 ± 40 nM
c1ccc(N2CCN(c3nc4cc5c(cc4s3)OCCO5)CC2)cc1,MAOB,"enzyme activity, inhibitor, fluorescence",,"recombinant human enzyme, added: kynuramine 20 µM",,IC50,550 nM
Nc1nc(Nc2ccc(S(N)(=O)=O)cc2)nn1C(=S)Nc1c(F)cccc1F,"Putative glycogen synthase kinase (Leishmania major, UniProt Q4QE15, D105E)","enzyme activity, inhibitor",,"90 min, 30 °C, added: 2 µM ATP",,IC50,460 nM
CSc1nc(Cl)cc(Sc2nnc(-c3cc(C(F)(F)F)cc(C(F)(F)F)c3)[nH]2)n1,"atpA/atpD (Escherichia coli, UniProt P0ABB0+P0ABB4)","ATPase activity, inhibitor",,,,IC50,> 200000 nM
Cc1ccc(S(=O)(=O)Nc2ccccc2N2CCCCC2)s1,BCHE,"enzyme activity, inhibitor",,,,IC50,17900 ± 2290 nM
CCN1CCN(Cc2ccc(NC(=O)c3ccc(C)c(/C=C/c4cnc5[nH]ccc5c4OC)c3)cc2C(F)(F)F)CC1,MSN-ALK fusion,"kinase-CDC37 interaction, cell-based kinome screen",,5 µM,relative to: vehicle,log2 fold change,-0.131
O=C(NOCC1CC1)c1cc(Br)c(F)c(F)c1Nc1ccc(I)cc1Cl,BCHE,"enzyme activity, inhibitor",,,,IC50,23400 ± 1530 nM
O=C(Cn1c(-c2ccccn2)nc2ccccc21)Nc1ccc2ccccc2c1,"guaB (Escherichia coli K-12, UniProt P0ADG7, L444Y/S250A)","enzyme activity, inhibitor",,,,IC50,1.9 nM
CCCN1CCN(c2ccc3c(c2)C2CC3CCN2C(=O)OCc2ccccc2)CC1 (stereo not shown),"SLC6A4 (Homo sapiens, UniProt P31645)","binding, radioligand binding",,,,Ki,8630 nM
CO[C@]12CC[C@@]3(C[C@@H]1[C@](C)(O)c1cc(C)cc(C)c1)[C@H]1Cc4ccc(O)c5c4[C@@]3(CCN1CC1CC1)[C@H]2O5,"Oprm1 (Rattus norvegicus, UniProt P33535)","binding, radioligand displacement",C6 rat glioma,added: [3H]diprenorphine,,Ki,0.28 ± 0.16 nM
O=C(N/N=C/c1cc([N+](=O)[O-])ccc1O)c1ccc(O)cc1O,"PHGDH (Homo sapiens, UniProt O43175, K58A/T60A)","enzyme activity, inhibitor",,K57A T59A mutant,,IC50,128000 ± 10000 nM

# Repeated from above:
SMILES,target or system,test,test system,conditions,scale,endpoint,result
O=C(Cn1c(-c2ccccn2)nc2ccccc21)Nc1ccc2ccccc2c1,"guaB (Escherichia coli K-12, UniProt P0ADG7, L444Y/S250A)","enzyme activity, inhibitor",,,,IC50,1.9 nM
